Results from different studies.
A part holds a random share of what one study measured. Substitutions count along the parent as printed.
Sequence of UniProt Q16288 (whole entry, looked up): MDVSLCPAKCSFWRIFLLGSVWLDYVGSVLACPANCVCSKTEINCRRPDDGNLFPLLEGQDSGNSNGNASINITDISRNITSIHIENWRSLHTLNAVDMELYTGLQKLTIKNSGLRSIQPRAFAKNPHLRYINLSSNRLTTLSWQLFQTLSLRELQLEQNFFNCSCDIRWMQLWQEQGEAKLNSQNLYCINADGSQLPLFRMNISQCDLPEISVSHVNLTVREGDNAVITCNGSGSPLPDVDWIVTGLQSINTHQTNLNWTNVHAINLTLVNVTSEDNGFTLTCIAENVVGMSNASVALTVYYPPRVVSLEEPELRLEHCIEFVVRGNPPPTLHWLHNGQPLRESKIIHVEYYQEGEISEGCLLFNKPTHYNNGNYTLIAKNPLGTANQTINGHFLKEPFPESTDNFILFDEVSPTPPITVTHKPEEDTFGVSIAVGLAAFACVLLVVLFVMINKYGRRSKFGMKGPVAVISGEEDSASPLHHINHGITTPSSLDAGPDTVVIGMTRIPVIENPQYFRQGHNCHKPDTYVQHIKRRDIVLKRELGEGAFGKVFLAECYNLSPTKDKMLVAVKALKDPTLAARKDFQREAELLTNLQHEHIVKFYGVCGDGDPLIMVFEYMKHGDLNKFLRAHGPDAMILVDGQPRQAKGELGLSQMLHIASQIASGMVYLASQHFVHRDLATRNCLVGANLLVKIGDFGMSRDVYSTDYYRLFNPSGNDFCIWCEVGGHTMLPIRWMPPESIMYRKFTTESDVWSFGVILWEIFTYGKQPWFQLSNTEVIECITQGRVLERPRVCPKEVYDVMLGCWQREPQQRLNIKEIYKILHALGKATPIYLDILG

Series 1
Target: CEP164, C-terminal peptide (human)
Technique: DHFR complementation, deep sequencing
Sample: yeast
Setting: single substitutions, model-inferred values
Reference: wild type
Direction: higher = weaker binding
Starting sequence: PDZK1, PDZ domain 2 (human); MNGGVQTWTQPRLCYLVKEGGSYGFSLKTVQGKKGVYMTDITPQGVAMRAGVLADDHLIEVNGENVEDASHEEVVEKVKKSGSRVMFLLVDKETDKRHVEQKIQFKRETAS; partner HNRVKVYRF
Substitution	binding free energy change [kcal/mol]
P43Y	0.228
I59G	1.86
L27Q	1.2
G35T	1.16
K77C	0.25
L53A	0.315
L89G	1.84
K34F	0.326

Series 2
Partner: ARF12 500-593 (Arabidopsis thaliana, UniProt Q9XID4)
Technique: two-hybrid
Reference: out of 4 tests
Direction: higher = firmer interaction
B1: ARF2 727-859 (Arabidopsis thaliana, UniProt Q94JM3); chain TKTNSSRSCTKVHKQGIALGRSVDLSKFQNYEELVAELDRLFEFNGELMAPKKDWLIVYTDEENDMMLVGDDPWQEFCCMVRKIFIYTKEEVRKMNPGTLSCRSEEEAVVGEGSDAKDAKSASNPSLSSAGNS
B2: IAA34 (Arabidopsis thaliana, UniProt Q9C5X0); chain MYCSDPPHPLHLVASDKQQKDHKLILSWKKPTMDSDPLGVFPNSPKYHPYYSQTTEFGGVIDLGLSLRTIQHEIYHSSGQRYCSNEGYRRKWGYVKVTMDGLVVGRKVCVLDHGSYSTLAHQLEDMFGMQSVSGLRLFQMESEFCLVYRDEEGLWRNAGDVPWNEFIESVERLRITRRNDAVLPF
B3: ARF4 660-788 (Arabidopsis thaliana, UniProt Q9ZTX9); chain QSSSKRICTKVHKQGSQVGRAIDLSRLNGYDDLLMELERLFNMEGLLRDPEKGWRILYTDSENDMMVVGDDPWHDFCNVVWKIHLYTKEEVENANDDNKSCLEQAALMMEASKSSSVSQPDSSPTITRV
B4: IAA32 (Arabidopsis thaliana, UniProt Q8RYC6); chain MDPNTPADFFKGSSKFHTYYSQTKKGGGVIDLGLSLRTIQHETYLPPARMIGLDGYGELIDWSQPSYNSITQLKSEDTGHQRLAQGYYNNEGESRGKYAYVKVNLDGLVVGRKVCLVDQGAYATLALQLNDMFGMQTVSGLRLFQTESEFSLVYRDREGIWRNVGDVPWKEFVESVDRMRIARRNDALLPF
B5: IAA33 (Arabidopsis thaliana, UniProt Q9FKM7); chain MNSFEPQSQDSLQRRFHQDNSTTQQPRDTTTPFIPKPASKNHNNSNSSSGAAGRSFQGFGLNVEDDLVSSVVPPVTVVLEGRSICQRISLDKHGSYQSLASALRQMFVDGADSTDDLDLSNAIPGHLIAYEDMENDLLLAGDLTWKDFVRVAKRIRILPVKGNTRQVKRNE
Residues (chain): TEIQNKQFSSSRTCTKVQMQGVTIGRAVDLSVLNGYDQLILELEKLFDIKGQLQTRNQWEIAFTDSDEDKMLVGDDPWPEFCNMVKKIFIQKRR
Sequence	positive tests
B1 (ARF2 727-859)	3
B2 (IAA34)	1
B3 (ARF4 660-788)	0
B4 (IAA32)	1
B5 (IAA33)	1

Further values, each from its own experiment
Substance	target or system	test	system	setting	measurement	value
ARVCF (Homo sapiens, UniProt O00192)	DRC11 (Homo sapiens, UniProt Q86XH1)	cross-linking MS	cell fractions	together with: DMTMM	cross-linked residues	K561 to E650
CO[C@@H](C)c1c(Nc2ccc([C@@H](N(C)C(=O)C3CCS(=O)(=O)CC3)C(F)(F)F)cc2)cnc2cc(Cl)nn12	NTRK3 (Homo sapiens, UniProt Q16288)	cell-free assay, competition with immobilised ligand	–	1 µM	remaining binding	100%
YWHAE (Homo sapiens, UniProt P62258)	ATP6V1G3 (Homo sapiens, UniProt Q96LB4)	cross-linking MS	cell fractions	together with: DMTMM	cross-linked residues	E70 to K26
FARSB (Homo sapiens, UniProt Q9NSD9)	FARSA (Homo sapiens, UniProt Q9Y285)	cross-linking MS	cell fractions	together with: DSSO	cross-linked residues	K467 to K481
CPSF2 (Homo sapiens, UniProt Q9P2I0)	CPSF3 (Homo sapiens, UniProt Q9UKF6)	cross-linking MS	–	hits only	interaction screen	cross-linked

For quick reference, copied from above (further values, each from its own experiment):
Substance	target or system	test	system	setting	measurement	value
YWHAE (Homo sapiens, UniProt P62258)	ATP6V1G3 (Homo sapiens, UniProt Q96LB4)	cross-linking MS	cell fractions	together with: DMTMM	cross-linked residues	E70 to K26
